# Experimental data collected from several papers.
# Numbered parts are unrelated; each lists some results of a single study.

# Series 1
# Target: RNA binding protein fox-1 homolog 2, RRM domain, GST-SBP tag (RBFOX2, Homo sapiens, UniProt O43251-10, residues 100-194)
# Technique: RNA Bind-n-Seq
# Molecule type: RNA
# Medium: in vitro
# Tested at: 365 nM
# Notes: natural RNA segment, single round, ends assumed
# Reference: no-protein control
# Reading: higher = stronger binding
# Target sequence (chain): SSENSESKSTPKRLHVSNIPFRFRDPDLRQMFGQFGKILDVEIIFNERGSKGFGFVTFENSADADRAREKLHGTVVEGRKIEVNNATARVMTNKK
Sequence,RBNS enrichment (R)
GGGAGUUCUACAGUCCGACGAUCAGCCUCACCAGGUGGGCUUGUAGCCUCUAUUAUGCAAAUAUUCGUAGCUCAGCUUUCAGAGCGCUAACUCUAAAGGAAUUCACCUGAGCCUUGAGAGAGAACCUGGGCUAUGGAAUUCUCGGGUGCCAA,0.5
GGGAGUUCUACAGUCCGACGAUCCUCUGGAAGAAACACCAAAGCCUGCUGGAAAGGAAAGCGUUUGAAGAAAGAAUUGUCCUCCUGUAGGUUCCAUUCCUUCGGAUGGGCCUACCUUACCAUUGUUAGGACAGUGGAAUUCUCGGGUGCCAA,0.41
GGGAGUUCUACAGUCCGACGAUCCAUUGAUAUUUCUCUGAUGUGAGAUAGAGCUGUGUGUGUGUGACUGGCUAGCAGCUAUCAGUAUUAGCGAGGUGUCUUGCCGAUAUCAGAGUCAGUGUGUCAUUUCAGUUUGGAAUUCUCGGGUGCCAA,0.602
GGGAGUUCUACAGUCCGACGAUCCUUGAAAUUUAUUGGUUUUGUUGUAAUUUUAUACAGAUUAUAUGAGGGAUAAGAUACUCAUCAAAUUGCAAAUUCUUUUUUUUACAGAAGUGUGGGUAACAGUCACAGCAUGGAAUUCUCGGGUGCCAA,0.825
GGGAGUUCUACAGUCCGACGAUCUAAUAAAGGCAAGCGGGCUCCAGAGCCUCUCUGGUGGCGGCCAAGCCACACUCCCUUAACUGGGAAGUACCUGCCACGUAGGGCAUUUCUGCUGCCUAUUUCCAGCCAGCUGGAAUUCUCGGGUGCCAA,0.173
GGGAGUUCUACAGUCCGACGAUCAUUUGAUUCUGUGCAGGACACAAAUCUCACAGGAACUAUAGCACUUUGGAAAAGCAUCAAAGUAGAAAAGAAAUACAGUGCAAUUCUAUUAUGAGAAUGUUUUACAUUUAUGGAAUUCUCGGGUGCCAA,0.696
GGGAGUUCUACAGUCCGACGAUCCUGUCCCCUUCGACCCUCAGCCCUCUGGUGCCGCUCUGCCCGAUGCACAGCCACCUCAGCCAGCCCCCAGGUAGAAACGUGGGUUAAGCUCUUCCUGCCCCGUUCAGCUUUGGAAUUCUCGGGUGCCAA,0.333
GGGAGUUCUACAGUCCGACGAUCAACUCCUUCCCUGCUGCUGAGUGGAGAGAGGCCUCAUCCGGCUUUGACCCACCAUCCGUUGCAGAAGCCUCCAGGAGCAGCAAUCCUAAGAGUGGGAGGCAGCCAAGACCUGGAAUUCUCGGGUGCCAA,0.196
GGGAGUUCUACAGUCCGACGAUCUCCUUCCAUUUGACCUAAUUUAACUGGUGAAAUUUAAAGUGAAUUCAUGGGCUCAUCUUUAAAGCUUUUACUAAAAGAUUUUCAGCUGAAUGGAACUCAUUAGCUGUGUGUGGAAUUCUCGGGUGCCAA,0.413

# Series 2
# Target: Centromere-binding protein 1, full length, His-tagged (CBF1, Saccharomyces cerevisiae, UniProt P17106, residues 1-351)
# UniProt P17106, sequence (whole entry, looked up): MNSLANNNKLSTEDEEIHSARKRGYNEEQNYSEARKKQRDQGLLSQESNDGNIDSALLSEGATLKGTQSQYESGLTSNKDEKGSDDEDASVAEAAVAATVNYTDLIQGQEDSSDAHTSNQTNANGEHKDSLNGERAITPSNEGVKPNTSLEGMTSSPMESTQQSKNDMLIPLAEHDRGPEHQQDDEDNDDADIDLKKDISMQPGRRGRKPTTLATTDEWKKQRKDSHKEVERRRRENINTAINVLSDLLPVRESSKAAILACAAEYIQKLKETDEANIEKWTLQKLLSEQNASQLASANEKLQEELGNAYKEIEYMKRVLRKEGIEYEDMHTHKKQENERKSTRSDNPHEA
# Technique: competition protein-binding microarray
# Molecule type: double-stranded DNA, one strand shown
# Medium: in vitro
# Tested at: 2 µM
# Notes: whole 60-bp probe, lowest competitor level
# With: Pho4 competitor, 0.05 µM
# Reading: higher = stronger binding
Sequence,fluorescence intensity
AGGCTCTTTTCCCGTCACGTAAGGTGTGGAAGTTAGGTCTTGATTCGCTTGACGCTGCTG,80.5 a.u.
CATACCCAACCTTGTATTGTGGGTGAAGATATTTGTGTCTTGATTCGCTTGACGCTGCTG,81.5 a.u.
GGTACAGCCGTCTACAACGTGTGTTAATTTGCTAACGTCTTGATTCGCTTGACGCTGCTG,99.1 a.u.
TGTTCTTATGGCTTGCATGTGCTCTGTATGTATATAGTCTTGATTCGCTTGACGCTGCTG,184 a.u.
ACCTCATCACATCGACGCGTGGAACAGCGTTTCTTCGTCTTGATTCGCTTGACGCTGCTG,79.6 a.u.
CTTCTGTAAATTTGAATGGTGGGTGGACGCGCCCCGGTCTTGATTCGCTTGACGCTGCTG,87.3 a.u.
AGAAAAAAACATGGCCACATGTAGTATCGACTGACAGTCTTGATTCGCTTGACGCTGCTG,94 a.u.
CTTTGAGCACCACTCCACGTGGGCGCAGGCGCAGCGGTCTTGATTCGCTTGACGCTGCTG,397 a.u.
CGGGGTTAAGTTTGTCACGTTACTTGCTTGCAGCAGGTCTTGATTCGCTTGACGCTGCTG,630 a.u.
AGCAGTGCTTTTACCCCCGTGCTTTTCGTTACAATAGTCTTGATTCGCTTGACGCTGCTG,174 a.u.
CCGGCCATTGCTTACCGCGTGCAAAATCCGTAACATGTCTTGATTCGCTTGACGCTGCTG,90.1 a.u.
AGGGTGGTATGGATACACGGGAAGCTTGGGTGCTGCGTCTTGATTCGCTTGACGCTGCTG,68.2 a.u.
ATAGTGGTGAGCTGGCACGTTTCTCCACACCTAGTAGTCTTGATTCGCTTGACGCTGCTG,113 a.u.
CGTTGCAGGAGCCCGCCCATGGACGCATTTGAGCAAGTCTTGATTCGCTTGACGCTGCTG,45.6 a.u.
CTAACGAAGGTTTGCATTGTGGGTGACAAGCCAAGTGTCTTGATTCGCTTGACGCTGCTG,70.2 a.u.
CGAATGGAGAGCGGCCACGTTGTTAGGGGAGTAACAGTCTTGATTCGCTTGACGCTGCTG,82.9 a.u.
CTCAAACACCACATCTGCGTGATGGCCGCCCAAAAGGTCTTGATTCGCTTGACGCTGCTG,81.3 a.u.
CTAACGAAGGTTTTTCACGTGTGTTACAAGCCAAGTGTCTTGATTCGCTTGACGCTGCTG,582 a.u.
CCGGGAGTTTTTCCGCACGCTAAAATCAAGACTCAAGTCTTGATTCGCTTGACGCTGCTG,72.9 a.u.

# Series 3
# Target: Interferon regulatory factor 7, full length, phosphomimetic (IRF7, Homo sapiens, UniProt Q92985, residues 1-503, S471D/S472D/S475D/S476D/S477D/S483D/S484D/S487D)
# Technique: protein-binding microarray
# Molecule type: double-stranded DNA, one strand shown
# Medium: in vitro
# Tested at: 2200 nM top
# Notes: 60-bp whole probe
# With: salmon DNA 0.4 mg/ml
# Reference: random background probes
# Reading: higher = stronger binding
# Shared flanks, not repeated: GCCTAGCAC … GTCTTGATTCGCTTGACGCTGCTG
# Target sequence (chain): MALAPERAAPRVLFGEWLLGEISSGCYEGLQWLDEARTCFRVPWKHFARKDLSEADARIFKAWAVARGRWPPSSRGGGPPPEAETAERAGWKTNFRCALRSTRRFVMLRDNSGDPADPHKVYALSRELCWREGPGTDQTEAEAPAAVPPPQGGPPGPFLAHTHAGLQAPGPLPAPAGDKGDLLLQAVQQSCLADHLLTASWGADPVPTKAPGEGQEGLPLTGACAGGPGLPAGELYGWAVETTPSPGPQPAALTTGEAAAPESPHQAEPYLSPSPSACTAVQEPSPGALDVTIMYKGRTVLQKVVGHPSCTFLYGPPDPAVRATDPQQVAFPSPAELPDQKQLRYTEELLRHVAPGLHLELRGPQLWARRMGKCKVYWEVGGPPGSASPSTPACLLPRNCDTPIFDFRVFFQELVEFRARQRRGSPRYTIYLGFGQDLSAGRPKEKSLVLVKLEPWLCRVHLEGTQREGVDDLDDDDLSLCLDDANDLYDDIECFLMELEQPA
Sequence,fitted relative affinity [z-score]
GACGGTTCCGGTTTCAGGACGTGCTAG,3.63
CTGTGTTTCCTTGTACGTCGGTGCTAG,2.36
TTAGGTTTCGACACTGAGTTAGTGCTA,1.95
TACGGTATCGGGTTTCGGGACGTGCTA,1.95
TTAGATTTCGGGACTGTATTAGTGCTA,1.05
GACGGTTTCGGTATCAGGACGTGCTAG,7.26
AGTCTCTTCTGGGACTCATGGTGCTAG,0.141
TCATTTTGCTTTCTTTAACTGTGCTAG,3.75
GACGGACTGGGACGGGGGACGTGCTAG,0.122
TACGGTTTCGGGTTTCGGGACGTGCTA,10.1
TTTGGTATCGGGTATCGGTTAGTGCTA,1.35
TTAGAACTGAGTATCGATCAGTGCTAG,-0.619
TTAGGACTGGACACTGGGTGAGTGCTA,-0.819
GCTTCTACACAGAGCATGGGGTGCTAG,0.353
GCTCTCTTCTGCTTCCTCAGGTGCTAG,2.16
TTAGGTCTCGGTCTCGGTGAGTGCTAG,0.324
TTTGGACTGCTTCTCCTTTAGTGCTAG,1.13
TTCTTAATGCTTCTGGGCCAGTGCTAG,0.0153
TTAGATCTCAGACTAGATTAGTGCTAG,-0.308
TTGTATTTGTCCCTATTTAAGTGCTAG,1.93
GACGGTTTCGGGCTTCGGGACGTGCTA,3.6
TCTGATTTCTCAAACAGCTCGTGCTAG,1.21
TTAGATTTCAGTCTCGATTTGTGCTAG,1.99
GACGGATTGGGACTGGGGACGTGCTAG,-0.255
TCAGTTTTACAATTTGCACTGTGCTAG,1.55

# Series 4
# Target: Ras GTPase-activating protein-binding protein 1, full length (G3BP1, Homo sapiens, UniProt Q13283)
# UniProt Q13283, sequence (whole entry, looked up): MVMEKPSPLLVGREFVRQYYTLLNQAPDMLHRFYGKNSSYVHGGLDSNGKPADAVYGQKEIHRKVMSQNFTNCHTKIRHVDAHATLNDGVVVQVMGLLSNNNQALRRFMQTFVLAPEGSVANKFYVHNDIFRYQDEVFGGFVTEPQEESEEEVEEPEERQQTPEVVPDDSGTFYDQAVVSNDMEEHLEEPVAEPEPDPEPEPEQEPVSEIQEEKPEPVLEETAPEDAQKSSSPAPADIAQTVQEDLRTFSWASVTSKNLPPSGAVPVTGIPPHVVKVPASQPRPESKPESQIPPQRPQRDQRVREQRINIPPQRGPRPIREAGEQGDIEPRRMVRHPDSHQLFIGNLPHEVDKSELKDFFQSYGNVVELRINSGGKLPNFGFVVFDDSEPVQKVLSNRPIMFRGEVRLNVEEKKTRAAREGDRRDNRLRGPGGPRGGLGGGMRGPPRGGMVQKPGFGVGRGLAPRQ
# Technique: RNA Bind-n-Seq
# Molecule type: RNA
# Medium: in vitro
# Tested at: 200 nM
# Notes: whole 134-nt RNA, ends assumed
# With: 150 mM LiCl
# Reference: input library
# Reading: higher = stronger binding
# Library: 7-deaza-guanosine replaces G
Sequence,log2 enrichment
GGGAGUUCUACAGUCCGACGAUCACCAUGCAGGUGGGCAUCUUUGGGAAGUGGGGCAAGGGGGGGAUAGGGAGGGGGGUAACACUUCGGGAACAGGUGGUCCCAGGUCGUUUCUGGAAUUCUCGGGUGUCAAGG,0.222
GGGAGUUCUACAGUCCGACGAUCCCUGUGCUACACAUCGUAUGUACCGAAUCGGGGAAAAAGGGGUUUUUGGGGUUUUUGGGGAAAGUAUUAUGUUACGCCGUUCGGAUCUGCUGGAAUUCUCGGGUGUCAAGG,-0.448
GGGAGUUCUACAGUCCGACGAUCCCUCAAGUCCUGUGCUACACAUCGUAUGUACCGAAUCGGGGCGGGCGGGGCGGAAAGUAUUAUGUUACGCCGUUCGGAUCUGCACUUCCAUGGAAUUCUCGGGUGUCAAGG,0.0358
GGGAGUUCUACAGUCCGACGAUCCCUCAAGUCCUGUGCUACACAUCGUAUGUACCGAAUCGGAAGGAAGGAAGGGAAAGUAUUAUGUUACGCCGUUCGGAUCUGCACUUCCAGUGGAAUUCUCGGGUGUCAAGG,0.275
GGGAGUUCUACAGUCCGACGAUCCACAGACAACACGCACCCACACAGACACAGAGAAAAGGGGUUGGGAUGGGGACAGGGUGCACAGCAGGGCGGGGUAGGACCCCAGCCCCUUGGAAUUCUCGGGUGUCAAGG,0.823
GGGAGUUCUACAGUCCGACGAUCCACAGACAACACGCACCCACACAGACACAGAGGGAAGGGGUUGGGAUGGGGACAGGGUGCACAGCAGGGCGGGGUAGGACCCCAGCCUCUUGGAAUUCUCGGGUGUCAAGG,-0.539
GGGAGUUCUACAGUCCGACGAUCUGCUAGGACUUGAUGGAUCACUAGUUUUUCUGGUAAGUAAAACUAAUUUUUUUUUUUUUUUUUUGAGACGGAAUCUCACUCUGUCACCCAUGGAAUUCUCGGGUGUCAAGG,1.35
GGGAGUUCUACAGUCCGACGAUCCCUGUGCUACACAUCGUAUGUACCGAAUCGGGGAAAAAGGGGAAAAAAAGGGGUUUGGGGAAAGUAUUAUGUUACGCCGUUCGGAUCUGCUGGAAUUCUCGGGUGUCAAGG,-0.315
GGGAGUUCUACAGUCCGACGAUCGUCCUGUGCUACACAUCGUAUGUACCGAAUCGGCCCCCGGGCCCCCGGGCCCCCGGGGAAAGUAUUAUGUUACGCCGUUCGGAUCUGCACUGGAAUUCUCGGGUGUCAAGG,-1.32
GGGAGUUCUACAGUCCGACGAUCCCUGUGCUACACAUCGUAUGUACCGAAUCGGGGAAAAAAGGGAAAAAAGGGAAAAAAGGGGAAAGUAUUAUGUUACGCCGUUCGGAUCUGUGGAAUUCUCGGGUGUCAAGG,0.63
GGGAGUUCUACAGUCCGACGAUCUCAAGUCCUGUGCUACACAUCGUAUGUACCGAAUCGGUUUUUUUGGAGGUUUGGAAAGUAUUAUGUUACGCCGUUCGGAUCUGCACUUCCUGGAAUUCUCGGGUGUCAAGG,-0.471

# Repeated from above (series 3):
Sequence,fitted relative affinity [z-score]
TTAGGTCTCGGTCTCGGTGAGTGCTAG,0.324
TCATTTTGCTTTCTTTAACTGTGCTAG,3.75
TTAGAACTGAGTATCGATCAGTGCTAG,-0.619
TCTGATTTCTCAAACAGCTCGTGCTAG,1.21
TTAGGACTGGACACTGGGTGAGTGCTA,-0.819
